Assay results from different studies.
Every numbered part comes from another study and shows a few of its results, in no order. “And” joins repeats or separate records; there may be more than shown.

Series 1
Target: DNA polymerase theta, ATPase domain (POLQ, Homo sapiens, UniProt O75417)
Sequence of UniProt O75417 (whole entry, unmodified, looked up): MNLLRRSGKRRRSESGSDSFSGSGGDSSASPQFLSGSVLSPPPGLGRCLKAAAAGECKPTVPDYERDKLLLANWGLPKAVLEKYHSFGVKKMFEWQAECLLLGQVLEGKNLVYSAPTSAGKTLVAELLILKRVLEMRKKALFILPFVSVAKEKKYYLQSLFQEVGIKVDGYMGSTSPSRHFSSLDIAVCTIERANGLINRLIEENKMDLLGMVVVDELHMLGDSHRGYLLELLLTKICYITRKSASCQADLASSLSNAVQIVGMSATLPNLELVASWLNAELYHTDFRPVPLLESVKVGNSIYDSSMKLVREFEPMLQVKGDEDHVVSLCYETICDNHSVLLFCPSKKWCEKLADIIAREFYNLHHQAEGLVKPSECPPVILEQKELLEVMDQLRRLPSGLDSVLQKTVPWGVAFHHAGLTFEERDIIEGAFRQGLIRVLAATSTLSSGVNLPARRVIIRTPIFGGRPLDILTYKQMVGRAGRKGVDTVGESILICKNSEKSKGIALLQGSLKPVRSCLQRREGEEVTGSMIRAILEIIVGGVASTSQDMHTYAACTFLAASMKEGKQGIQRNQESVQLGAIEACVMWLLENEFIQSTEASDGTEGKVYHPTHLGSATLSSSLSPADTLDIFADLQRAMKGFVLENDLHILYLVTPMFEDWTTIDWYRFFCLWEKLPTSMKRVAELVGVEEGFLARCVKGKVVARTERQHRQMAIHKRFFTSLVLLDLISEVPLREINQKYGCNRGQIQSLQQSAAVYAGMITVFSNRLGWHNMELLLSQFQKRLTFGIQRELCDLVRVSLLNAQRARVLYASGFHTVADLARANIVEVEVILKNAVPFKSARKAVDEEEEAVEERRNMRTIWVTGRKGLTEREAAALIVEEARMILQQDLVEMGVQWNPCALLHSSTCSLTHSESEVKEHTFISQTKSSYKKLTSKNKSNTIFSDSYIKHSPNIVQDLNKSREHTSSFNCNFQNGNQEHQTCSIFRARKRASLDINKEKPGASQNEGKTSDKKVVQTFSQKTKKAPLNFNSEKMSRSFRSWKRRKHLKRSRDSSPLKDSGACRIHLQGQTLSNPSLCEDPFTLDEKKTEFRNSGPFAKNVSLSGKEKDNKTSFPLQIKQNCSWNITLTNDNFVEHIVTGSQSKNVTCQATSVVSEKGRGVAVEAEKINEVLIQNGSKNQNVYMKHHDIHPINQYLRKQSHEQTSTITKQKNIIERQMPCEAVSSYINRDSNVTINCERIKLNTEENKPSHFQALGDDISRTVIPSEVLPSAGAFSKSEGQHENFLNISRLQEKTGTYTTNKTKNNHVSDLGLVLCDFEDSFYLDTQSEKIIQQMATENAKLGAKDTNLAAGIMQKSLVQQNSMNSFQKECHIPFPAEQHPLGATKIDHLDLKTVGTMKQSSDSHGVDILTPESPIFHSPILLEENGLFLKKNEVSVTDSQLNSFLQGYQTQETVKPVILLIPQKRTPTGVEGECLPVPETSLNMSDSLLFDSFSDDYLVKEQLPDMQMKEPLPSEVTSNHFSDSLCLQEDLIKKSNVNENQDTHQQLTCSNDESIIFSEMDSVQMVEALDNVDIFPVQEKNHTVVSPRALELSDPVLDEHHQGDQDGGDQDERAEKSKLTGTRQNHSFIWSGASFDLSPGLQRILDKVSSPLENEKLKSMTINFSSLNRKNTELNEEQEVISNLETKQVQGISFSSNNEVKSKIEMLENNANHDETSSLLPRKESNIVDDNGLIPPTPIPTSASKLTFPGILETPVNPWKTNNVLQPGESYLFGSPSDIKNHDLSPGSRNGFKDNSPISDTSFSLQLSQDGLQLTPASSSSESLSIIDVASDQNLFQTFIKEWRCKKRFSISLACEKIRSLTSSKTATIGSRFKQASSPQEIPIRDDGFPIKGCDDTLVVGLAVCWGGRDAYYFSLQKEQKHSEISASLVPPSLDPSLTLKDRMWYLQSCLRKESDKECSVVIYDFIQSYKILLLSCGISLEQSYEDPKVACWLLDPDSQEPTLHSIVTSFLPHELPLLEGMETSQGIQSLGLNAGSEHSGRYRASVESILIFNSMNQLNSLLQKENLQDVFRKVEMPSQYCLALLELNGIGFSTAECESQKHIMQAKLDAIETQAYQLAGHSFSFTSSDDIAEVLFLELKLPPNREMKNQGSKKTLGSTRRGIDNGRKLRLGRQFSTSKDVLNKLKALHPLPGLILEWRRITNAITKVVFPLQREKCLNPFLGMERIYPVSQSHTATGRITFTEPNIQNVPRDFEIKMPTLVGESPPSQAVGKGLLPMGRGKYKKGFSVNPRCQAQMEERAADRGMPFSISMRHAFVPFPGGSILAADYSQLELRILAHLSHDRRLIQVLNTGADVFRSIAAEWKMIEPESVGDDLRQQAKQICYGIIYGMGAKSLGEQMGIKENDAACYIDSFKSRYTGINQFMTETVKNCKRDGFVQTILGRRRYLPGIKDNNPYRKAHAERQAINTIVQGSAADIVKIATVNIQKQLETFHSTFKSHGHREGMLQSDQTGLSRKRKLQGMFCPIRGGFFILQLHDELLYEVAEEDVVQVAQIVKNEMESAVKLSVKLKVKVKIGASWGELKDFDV
Effect on: enzyme activity
Mode: inhibitor
Tested at: 77 µM
Baseline: untreated
| SMILES | remaining activity |
| --- | --- |
| CCN1C[C@]2(C)CC[C@H](O)[C@]34C1[C@@H](C[C@H]23)[C@@]1(O)C[C@H](OC)[C@H]2C[C@@H]4[C@@H]1[C@H]2O | 103% |
| c1ccc(C2CC2)c(OCC2=NCCN2)c1 | 102% |
| Cc1cccc(Cc2c[nH]cn2)c1C | 90.9% |
| CCCN(CCC)CCc1ccc(O)c(O)c1 | 99.9% |
| COc1ccc(CC2c3cc(OC)c(OC)cc3CCN2C)cc1OC (racemic) | 99.4% |
| CC(C)[C@]12O[C@H]1[C@@H]1O[C@]13[C@]1(O[C@H]1C[C@H]1C4=C(CC[C@@]13C)C(=O)OC4)[C@@H]2O | 95.9% |
| CC(=O)[C@H]1CC[C@H]2[C@@H]3CC[C@H]4C[C@H](O)CC[C@]4(C)[C@H]3CC[C@]12C | 97.9% |

Series 2
Target: Calcium/calmodulin-dependent protein kinase type II subunit alpha (CAMK2A, Homo sapiens, UniProt Q9UQM7)
Sequence of UniProt Q9UQM7 (whole entry, looked up): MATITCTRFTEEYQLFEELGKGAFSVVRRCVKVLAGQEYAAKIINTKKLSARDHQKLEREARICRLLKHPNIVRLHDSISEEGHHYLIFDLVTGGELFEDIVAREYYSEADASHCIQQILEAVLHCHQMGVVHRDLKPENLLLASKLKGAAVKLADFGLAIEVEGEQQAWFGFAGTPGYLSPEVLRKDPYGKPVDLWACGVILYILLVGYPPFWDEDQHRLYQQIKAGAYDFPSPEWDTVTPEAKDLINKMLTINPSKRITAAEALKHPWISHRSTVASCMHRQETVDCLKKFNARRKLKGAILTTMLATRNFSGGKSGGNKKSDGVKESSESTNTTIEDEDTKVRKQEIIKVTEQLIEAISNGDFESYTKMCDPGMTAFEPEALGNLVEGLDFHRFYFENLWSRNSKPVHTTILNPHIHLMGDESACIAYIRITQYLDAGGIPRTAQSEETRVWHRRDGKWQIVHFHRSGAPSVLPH
Effect on: enzyme activity
Mode: inhibitor
Tested at: 10 µM
| Structure (SMILES) | inhibition |
| --- | --- |
| COc1ccc2c(c1OC)C(OC)N(C)c1c-2ccc2cc3c(cc12)OCO3 (centres unmarked) | -17% |
| C[C@@H]1CC[C@@]2(OC1)O[C@H]1C[C@H]3[C@@H]4CC=C5C[C@@H](O[C@@H]6O[C@H](CO)[C@@H](O[C@@H]7O[C@@H](C)[C@H](O[C@@H]8O[C@@H](C)[C@H](O)[C@@H](O)[C@H]8O)[C@@H](O)[C@H]7O)[C@H](O)[C@H]6O[C@@H]6O[C@@H](C)[C@H](O)[C@@H](O)[C@H]6O)CC[C@]5(C)[C@H]4CC[C@]3(C)[C@H]1[C@@H]2C | 1% |
| CN(C)NC(=O)CCC(=O)O | -1% |

Series 3
Structure (SMILES): CC(C)S(=O)(=O)c1cc2c(Nc3ccc4sc(C5CCCC5)nc4c3)ccnc2cc1OCCO
Method: CCK-8
| cell line | setting | survival |
| --- | --- | --- |
| L929 RIPK3-/- reexpressing RIPK3 K51A | 25 µM, added: zVAD | 40.5% and 40.4% and 50.3% and 48.1% |
| L929 RIPK3-/- reexpressing RIPK3 K51A/R69H | 6.25 µM | 96.2% and 93% and 92.9% and 94% and 86.1% |
| L929 RIPK3-/- reexpressing RIPK3 K51A/R69H | 1.563 µM, added: zVAD | 99.6% and 90.6% and 102% and 97.9% |
| L929 RIPK3-/- reexpressing RIPK3 K51A/R69H | 12.5 µM, added: zVAD | 79.7% and 76.6% and 75.7% and 82.7% |
| L929 RIPK3-/- reexpressing RIPK3 K51A/R69H | 3.125 µM, added: zVAD | 101% and 86.6% and 96% and 98.7% |

Other studies, line by line
Species: C57BL/6 CES1-/- mouse
Route: intravenous
| Structure (SMILES) | system | setting | quantity | result |
| --- | --- | --- | --- | --- |
| [N-]=[N+]=CC(=O)CC[C@H](N)C(=O)O | blood | 1 mg/kg equivalent | haemoglobin | 7.1 g/dL |
| CC(=O)N[C@@H](Cc1c[nH]c2ccccc12)C(=O)N[C@@H](CCC(=O)C=[N+]=[N-])C(=O)OC(C)C | – | 1 mg/kg | haematocrit | 20.4% and 22% and 23.4% |

Some of these lines once more (series 3):
| cell line | setting | survival |
| --- | --- | --- |
| L929 RIPK3-/- reexpressing RIPK3 K51A | 25 µM, added: zVAD | 40.5% and 40.4% and 50.3% and 48.1% |
